Measurements of several laboratories.
Lines come from different studies, so protocols differ.
Organism: Staphylococcus aureus

CN(C)c1cc(CNC(C)(C)C)c(O)c2c1C[C@H]1C[C@H]3[C@H](N(C)C)C(O)=C(C(N)=O)C(=O)[C@@]3(O)C(O)=C1C2=O  MIC (RN4250, Tet K efflux): 4 mg/L
CCN(CC)CCCN1/C(=C/c2cc[n+](C)c3ccccc23)Sc2ccccc21  MIC (microbial growth, broth dilution; MRSA): 16 mg/L
CCOC1C(C)C2C(C=CC3C(C)C=CC=CC(C)OC(=O)C(C)C(=O)C(Cl)(Cl)C(=O)C32)CC1(C)O (stereo not drawn)  MIC (microbial growth, broth dilution; NEWMAN): > 3.2 mg/L
CN(C)Cc1cc(N(C)C)c2c(c1O)C(=O)C1=C(O)[C@]3(O)C(=O)C(C(N)=O)=C(O)[C@@H](N(C)C)[C@@H]3C[C@@H]1C2  MIC (MRSA 5, Tet M ribosome protection): 1 mg/L
Oc1ccccc1-c1ccc[nH]1  MIC (microbial growth, broth dilution; NCTC8325; 20 h): 32 mg/L
N#Cc1ccc2cccc(O)c2n1  MIC (microbial growth, agar dilution; ATCC29213): > 1500 µM
CCCCCCc1ccc(Oc2ccccc2C#N)c(O)c1  MIC (microbial growth, broth dilution): 2 µM
CCCCCCCCCc1nc2cc(Cl)ccc2c(=O)n1CCCN  MIC (RN6390B): 2.3 mg/L
NC(=O)C1COC(=O)N1/N=C/c1ccc([N+](=O)[O-])o1 (stereo not drawn)  MIC (microbial growth, broth dilution; ATCC29213; 18 h): 25 mg/L
NC[C@@H]1O[C@H](O[C@H]2[C@@H](O)[C@H](O[C@@H]3[C@@H](O)[C@H](N)C[C@H](N)[C@H]3O[C@H]3O[C@H](CO)[C@@H](OCCO)[C@H](O)[C@H]3N)O[C@@H]2CO)[C@H](N)[C@@H](O)[C@@H]1O  MIC (broth microdilution; MRSA isolate AG 039): 32 mg/L
CN(C)c1cc(CNC2CCCCC2)c(O)c2c1C[C@H]1C[C@H]3[C@H](N(C)C)C(O)=C(C(N)=O)C(=O)[C@@]3(O)C(O)=C1C2=O  MIC (RN4250, Tet K efflux): 1 mg/L
CC[C@H](C)[C@H](N)C1=N[C@H](C(=O)N[C@@H](CC(C)C)C(=O)N[C@H](CCC(=O)O)C(=O)N[C@H](C(=O)N[C@H]2CCCCNC(=O)[C@H](CC(N)=O)NC(=O)[C@@H](CC(=O)O)NC(=O)[C@H](Cc3c[nH]cn3)NC(=O)[C@@H](Cc3ccccc3)NC(=O)[C@H]([C@@H](C)CC)NC(=O)[C@@H](CCCN)NC2=O)[C@@H](C)CC)CS1  MIC (broth microdilution; ATCC 29213, LB medium; 18 h, 37 °C, together with: ZnSO4 0.3 mM): 2 mg/L
CNC(CC(C)C)C(=O)NC1C(=O)NC(CC(N)=O)C(=O)NC2C(=O)NC3C(=O)NC(C(=O)NC(C(=O)O)c4cc(O)cc(O)c4-c4cc3ccc4O)C(O)c3ccc(c(Cl)c3)Oc3cc2cc(c3OC2OC(CO)C(O)C(O)C2OC2CC(C)(NC(=O)CCCC[N+]3(C)CCOCC3)C(O)C(C)O2)Oc2ccc(cc2Cl)C1O (stereo not drawn)  MIC (agar dilution; MRSA clinical isolate MRSA4): 256 mg/L
NC[C@@H]1O[C@H](O[C@H]2[C@@H](O)[C@H](O[C@@H]3[C@@H](O)[C@H](N)C[C@H](N)[C@H]3O[C@H]3O[C@H](CO)[C@@H](OCC(O)CO)[C@H](O)[C@H]3N)O[C@@H]2CO)[C@H](N)[C@@H](O)[C@@H]1O (stereo partly drawn)  MIC (broth microdilution; MRSA isolate AG 044): 32 mg/L
CN(C)c1cc(CNCCC(C)(C)C)c(O)c2c1C[C@H]1C[C@H]3[C@H](N(C)C)C(O)=C(C(N)=O)C(=O)[C@@]3(O)C(O)=C1C2=O  MIC (RN4250, Tet K efflux): 2 mg/L

Excerpt of the above:
CCN(CC)CCCN1/C(=C/c2cc[n+](C)c3ccccc23)Sc2ccccc21  MIC (microbial growth, broth dilution; MRSA): 16 mg/L
CCOC1C(C)C2C(C=CC3C(C)C=CC=CC(C)OC(=O)C(C)C(=O)C(Cl)(Cl)C(=O)C32)CC1(C)O (stereo not drawn)  MIC (microbial growth, broth dilution; NEWMAN): > 3.2 mg/L
